Published values gathered from unrelated publications.
Lines come from different studies, so protocols differ. ± marks the error that the study gave.
cyp121: Mycocyclosin synthase (cyp121, Mycobacterium tuberculosis, UniProt P9WPP7)
PDEB1: Class 1 phosphodiesterase PDEB1 (PDEB1, Trypanosoma brucei, UniProt Q8WQX9)
aacA4: Aminoglycoside N(6')-acetyltransferase type 1 (aacA4, Klebsiella pneumoniae, UniProt P19650)

The chains behind the UniProt entries cited, without tags or fusion partners. Residues count along the entry.
UniProt P9WPP7, whole entry: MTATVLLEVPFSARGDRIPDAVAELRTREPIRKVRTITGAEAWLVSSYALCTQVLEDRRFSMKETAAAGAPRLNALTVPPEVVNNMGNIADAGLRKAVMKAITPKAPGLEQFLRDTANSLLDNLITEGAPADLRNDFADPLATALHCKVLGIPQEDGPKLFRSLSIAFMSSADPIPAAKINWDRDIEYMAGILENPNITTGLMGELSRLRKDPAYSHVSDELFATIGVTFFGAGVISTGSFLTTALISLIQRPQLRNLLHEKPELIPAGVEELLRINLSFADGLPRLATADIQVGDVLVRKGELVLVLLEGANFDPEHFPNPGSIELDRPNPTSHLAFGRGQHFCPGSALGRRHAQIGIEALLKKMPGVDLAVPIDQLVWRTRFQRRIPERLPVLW
UniProt Q8WQX9, 1-930: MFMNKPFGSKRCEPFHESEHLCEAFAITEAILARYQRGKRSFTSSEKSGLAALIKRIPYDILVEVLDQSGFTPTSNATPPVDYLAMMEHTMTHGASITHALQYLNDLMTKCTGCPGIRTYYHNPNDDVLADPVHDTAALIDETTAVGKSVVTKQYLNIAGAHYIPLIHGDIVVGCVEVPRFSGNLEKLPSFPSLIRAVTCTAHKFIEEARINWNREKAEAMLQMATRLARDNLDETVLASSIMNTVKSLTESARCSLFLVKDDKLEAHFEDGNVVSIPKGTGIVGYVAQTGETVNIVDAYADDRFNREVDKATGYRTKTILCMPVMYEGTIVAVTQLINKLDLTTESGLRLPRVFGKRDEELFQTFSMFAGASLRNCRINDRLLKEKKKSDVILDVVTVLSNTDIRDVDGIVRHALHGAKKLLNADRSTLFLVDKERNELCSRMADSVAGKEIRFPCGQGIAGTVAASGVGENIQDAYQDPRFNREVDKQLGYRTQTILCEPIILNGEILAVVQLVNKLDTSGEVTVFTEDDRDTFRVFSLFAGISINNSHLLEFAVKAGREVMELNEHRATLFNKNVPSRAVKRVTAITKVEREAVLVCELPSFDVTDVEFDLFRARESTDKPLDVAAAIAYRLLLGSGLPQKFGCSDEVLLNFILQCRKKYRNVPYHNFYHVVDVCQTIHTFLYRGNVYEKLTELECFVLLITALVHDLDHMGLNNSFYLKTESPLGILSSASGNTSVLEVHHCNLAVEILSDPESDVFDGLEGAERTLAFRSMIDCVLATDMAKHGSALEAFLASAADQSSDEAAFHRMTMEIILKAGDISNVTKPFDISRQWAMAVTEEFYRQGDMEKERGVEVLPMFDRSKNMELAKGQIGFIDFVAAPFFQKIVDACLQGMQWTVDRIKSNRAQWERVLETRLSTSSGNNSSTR
UniProt P19650, whole entry: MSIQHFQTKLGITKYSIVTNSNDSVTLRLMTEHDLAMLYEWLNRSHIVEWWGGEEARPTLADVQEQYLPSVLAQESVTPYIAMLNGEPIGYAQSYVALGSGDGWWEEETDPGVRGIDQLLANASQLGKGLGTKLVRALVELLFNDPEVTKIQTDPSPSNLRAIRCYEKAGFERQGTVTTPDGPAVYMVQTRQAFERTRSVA
UniProt Q06187, whole entry: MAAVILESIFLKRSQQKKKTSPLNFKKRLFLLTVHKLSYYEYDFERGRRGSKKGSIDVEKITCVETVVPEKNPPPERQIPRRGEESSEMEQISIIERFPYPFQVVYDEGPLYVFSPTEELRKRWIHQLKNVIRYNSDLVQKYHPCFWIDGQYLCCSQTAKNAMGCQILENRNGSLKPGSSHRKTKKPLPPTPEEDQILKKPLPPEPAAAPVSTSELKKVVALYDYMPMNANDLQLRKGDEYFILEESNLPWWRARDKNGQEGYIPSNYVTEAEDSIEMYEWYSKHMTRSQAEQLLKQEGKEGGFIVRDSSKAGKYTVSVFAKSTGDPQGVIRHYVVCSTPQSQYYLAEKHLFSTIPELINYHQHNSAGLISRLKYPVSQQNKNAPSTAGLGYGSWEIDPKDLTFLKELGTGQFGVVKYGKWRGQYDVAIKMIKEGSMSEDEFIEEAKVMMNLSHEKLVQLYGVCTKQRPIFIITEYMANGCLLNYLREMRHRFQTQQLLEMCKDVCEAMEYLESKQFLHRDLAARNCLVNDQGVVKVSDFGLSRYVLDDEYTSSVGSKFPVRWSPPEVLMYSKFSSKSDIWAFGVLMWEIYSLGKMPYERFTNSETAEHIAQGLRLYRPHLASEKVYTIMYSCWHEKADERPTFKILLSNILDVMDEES
UniProt P05067, 672-713 limits assumed: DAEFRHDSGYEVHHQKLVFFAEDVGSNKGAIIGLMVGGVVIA
UniProt Q9NZ08, whole entry K380T, looked up: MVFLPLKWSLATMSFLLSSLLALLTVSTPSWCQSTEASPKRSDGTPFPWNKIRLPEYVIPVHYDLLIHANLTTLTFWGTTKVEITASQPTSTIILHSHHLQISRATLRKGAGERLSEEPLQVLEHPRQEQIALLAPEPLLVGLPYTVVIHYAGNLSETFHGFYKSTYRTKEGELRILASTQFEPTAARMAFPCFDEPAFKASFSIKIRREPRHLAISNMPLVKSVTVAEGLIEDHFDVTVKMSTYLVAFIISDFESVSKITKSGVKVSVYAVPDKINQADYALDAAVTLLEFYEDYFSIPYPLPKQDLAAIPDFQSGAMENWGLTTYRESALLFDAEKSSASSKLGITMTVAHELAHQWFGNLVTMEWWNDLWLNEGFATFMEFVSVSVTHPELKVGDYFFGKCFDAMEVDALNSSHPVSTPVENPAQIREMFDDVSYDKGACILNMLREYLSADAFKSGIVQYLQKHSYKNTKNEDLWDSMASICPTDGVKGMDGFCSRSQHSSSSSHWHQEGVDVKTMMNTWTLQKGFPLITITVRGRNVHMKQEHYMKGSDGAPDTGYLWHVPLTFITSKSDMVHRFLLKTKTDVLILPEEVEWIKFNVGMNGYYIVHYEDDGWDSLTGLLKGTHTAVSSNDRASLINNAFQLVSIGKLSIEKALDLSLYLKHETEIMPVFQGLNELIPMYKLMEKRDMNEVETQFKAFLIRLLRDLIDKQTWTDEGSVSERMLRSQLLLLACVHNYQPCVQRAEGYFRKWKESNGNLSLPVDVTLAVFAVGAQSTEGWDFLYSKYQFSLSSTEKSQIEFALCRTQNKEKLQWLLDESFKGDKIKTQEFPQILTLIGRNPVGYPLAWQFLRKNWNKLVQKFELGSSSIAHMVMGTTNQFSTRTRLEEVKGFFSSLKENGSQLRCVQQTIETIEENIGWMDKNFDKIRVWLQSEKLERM

| Structure (SMILES) | tested on | test | system | setting | scale | quantity | value |
| --- | --- | --- | --- | --- | --- | --- | --- |
| C=CC(c1ccc(-c2ccc3cc(OC)ccc3c2)cc1)n1ccnc1 (single isomer, unassigned) | cyp121 | – | – | enantiomer E1 | – | Kd | 0.9 µM |
| CC(C)(O/N=C(\C(=O)NCB(O)O)c1csc(N)n1)C(=O)O | ADC-7 beta-lactamase (Acinetobacter baumannii, UniProt Q6DRA1) | ESI-MS intact protein | – | 15 min, with: enzyme 14 µM | relative to: free β-lactamase | mass shift | 1 Da |
| Cc1ccc(NC(=O)Nc2ccc(-c3nc4ccc(-c5nc6ccc(C)c(S(=O)(=O)O)c6s5)cc4s3)cc2)cc1 | MBHA DNA substrate | SYBR Green I displacement | – | 100 µM | – | DNA bound | 90 ± 9% |
| O=C(NC1CCN(c2ncnc3[nH]cnc23)CC1)c1cccc(S(=O)(=O)Nc2ccc(Cl)cc2)c1 | A549-ACE2 | – | – | 0.823 µM | – | viability | 102% |
| C=CC(=O)Nc1cc(-n2c(=O)ccc3cnc4ccc(-c5cn[nH]c5)cc4c32)ccc1C | Tyrosine-protein kinase BTK (BTK, Homo sapiens, UniProt Q06187) | KinomeScan binding | – | 1 µM | – | remaining binding | 0.85% |
| COc1cccc(Nc2c(C(N)=O)cnc3ccc(-c4ccc5cnn(C)c5c4)cc23)c1 | PDEB1 | enzyme activity, inhibitor | – | – | relative to: Region D methyl analogue | potency loss | ~4 fold |
| CCCC[C@H](CN)NC[C@@H]1CCCN1C[C@@H](CO)NC[C@@H](NCCc1ccc(-c2ccccc2)cc1)c1ccccc1 | aacA4 | acetyltransferase activity | – | 5 µM | – | inhibition | > 70% |
| CCC(c1cc(-c2ccc(F)c(F)c2)cs1)n1ccnc1 (stereo not shown) | cyp121 | binding | – | – | – | Kd | 6.3 ± 1.1 µM |
| CCCC[C@H](CN)NC[C@@H]1CCCN1C[C@@H](CO)NC[C@@H](NCCC(C)c1ccccc1)c1ccccc1 (stereo partly shown) | aacA4 | acetyltransferase activity | – | 5 µM | – | inhibition | > 70% |
| CCc1cc(-c2ccc3cnn(C)c3c2)cc2c(Nc3cccc(OC)c3)c(C(N)=O)cnc12 | PDEB1 | enzyme activity, inhibitor | – | 10 µM | – | inhibition | 79 ± 8.9% |
| CN(C)c1cccc(Oc2cnc(Nc3ccccc3)nc2)c1 | Amyloid-beta precursor protein (APP, Homo sapiens, UniProt P05067) | transmission electron microscopy | – | concentration not given, 26 h | – | amyloid-beta 42 fibrils and oligomers | decreased |
| COc1ccc(C(=O)O)cc1S(=O)(=O)Nc1cc(C(F)(F)F)ccc1N1CCCCC1 | Endoplasmic reticulum aminopeptidase 1 (ERAP1, Homo sapiens, UniProt Q9NZ08, K380T) | enzyme activity, inhibitor | – | concentration not given, with: Leu-AMC substrate | – | inhibition | ~50% |
| O=c1ccn([C@@H]2O[C@H](COP(=O)(O)OP(=O)(O)OP(=O)(O)O)[C@@H](O)[C@]2(F)Br)c(=O)[nH]1 | Genome polyprotein, NS5B polymerase (Hepatitis C virus genotype 2a, UniProt Q99IB8) | polymerase activity, inhibitor | Hepatitis C virus, genotype 2a | – | relative to: genotype 1b | IC50 fold change | 1.9 |

Some of these lines once more:
| Structure (SMILES) | tested on | test | system | setting | scale | quantity | value |
| --- | --- | --- | --- | --- | --- | --- | --- |
| Cc1ccc(NC(=O)Nc2ccc(-c3nc4ccc(-c5nc6ccc(C)c(S(=O)(=O)O)c6s5)cc4s3)cc2)cc1 | MBHA DNA substrate | SYBR Green I displacement | – | 100 µM | – | DNA bound | 90 ± 9% |
